Assay results of several laboratories.
Every numbered part comes from another study and shows a few of its results, in no order.
UniProt Q07912, sequence (whole entry, looked up): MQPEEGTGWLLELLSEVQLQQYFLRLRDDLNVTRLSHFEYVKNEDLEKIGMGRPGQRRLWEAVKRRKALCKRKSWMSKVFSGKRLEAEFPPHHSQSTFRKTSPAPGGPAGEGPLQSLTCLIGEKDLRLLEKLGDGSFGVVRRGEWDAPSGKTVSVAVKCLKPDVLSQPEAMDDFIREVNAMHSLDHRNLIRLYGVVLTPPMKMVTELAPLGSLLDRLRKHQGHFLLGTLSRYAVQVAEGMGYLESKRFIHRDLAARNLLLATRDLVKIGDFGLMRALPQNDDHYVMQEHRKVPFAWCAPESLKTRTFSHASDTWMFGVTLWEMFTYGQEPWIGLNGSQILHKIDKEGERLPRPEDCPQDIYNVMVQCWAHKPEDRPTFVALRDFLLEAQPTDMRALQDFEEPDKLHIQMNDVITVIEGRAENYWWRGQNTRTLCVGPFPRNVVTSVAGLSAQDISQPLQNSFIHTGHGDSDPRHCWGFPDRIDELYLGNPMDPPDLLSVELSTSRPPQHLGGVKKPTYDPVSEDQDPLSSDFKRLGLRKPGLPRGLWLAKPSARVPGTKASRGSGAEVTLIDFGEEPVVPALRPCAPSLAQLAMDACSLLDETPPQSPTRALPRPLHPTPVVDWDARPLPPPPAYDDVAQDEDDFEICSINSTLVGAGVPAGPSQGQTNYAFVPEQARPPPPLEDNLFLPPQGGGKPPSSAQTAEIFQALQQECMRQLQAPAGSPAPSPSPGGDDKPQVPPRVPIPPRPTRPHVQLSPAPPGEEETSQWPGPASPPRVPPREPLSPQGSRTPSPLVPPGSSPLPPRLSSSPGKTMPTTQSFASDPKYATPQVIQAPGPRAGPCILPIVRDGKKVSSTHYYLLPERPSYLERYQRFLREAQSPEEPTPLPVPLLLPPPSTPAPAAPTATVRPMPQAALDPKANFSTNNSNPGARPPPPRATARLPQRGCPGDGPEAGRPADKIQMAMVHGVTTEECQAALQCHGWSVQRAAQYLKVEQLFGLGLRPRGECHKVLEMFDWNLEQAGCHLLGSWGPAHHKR
UniProt Q16584, sequence (whole entry, looked up): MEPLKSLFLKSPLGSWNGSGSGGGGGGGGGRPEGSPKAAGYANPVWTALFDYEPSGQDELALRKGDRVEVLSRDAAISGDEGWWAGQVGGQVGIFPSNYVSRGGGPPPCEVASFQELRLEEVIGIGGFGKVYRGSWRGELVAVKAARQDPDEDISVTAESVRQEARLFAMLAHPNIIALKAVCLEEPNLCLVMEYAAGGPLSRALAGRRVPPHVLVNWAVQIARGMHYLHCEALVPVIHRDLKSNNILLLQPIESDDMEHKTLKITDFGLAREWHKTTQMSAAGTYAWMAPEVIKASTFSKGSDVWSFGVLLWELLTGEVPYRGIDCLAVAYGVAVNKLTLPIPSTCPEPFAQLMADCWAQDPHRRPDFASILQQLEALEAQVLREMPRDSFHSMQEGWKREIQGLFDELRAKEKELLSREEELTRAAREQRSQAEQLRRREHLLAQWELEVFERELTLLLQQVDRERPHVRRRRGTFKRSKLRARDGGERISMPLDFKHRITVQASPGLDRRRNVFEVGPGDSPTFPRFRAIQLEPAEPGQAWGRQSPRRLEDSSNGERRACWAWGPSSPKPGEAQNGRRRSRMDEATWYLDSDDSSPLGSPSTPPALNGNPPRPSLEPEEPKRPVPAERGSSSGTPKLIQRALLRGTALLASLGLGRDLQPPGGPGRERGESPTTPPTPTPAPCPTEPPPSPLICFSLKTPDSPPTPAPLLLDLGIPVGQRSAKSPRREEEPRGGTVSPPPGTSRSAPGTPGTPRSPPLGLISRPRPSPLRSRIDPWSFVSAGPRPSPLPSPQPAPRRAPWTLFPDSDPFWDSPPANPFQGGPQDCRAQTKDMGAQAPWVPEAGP
UniProt Q13470, sequence (whole entry, looked up): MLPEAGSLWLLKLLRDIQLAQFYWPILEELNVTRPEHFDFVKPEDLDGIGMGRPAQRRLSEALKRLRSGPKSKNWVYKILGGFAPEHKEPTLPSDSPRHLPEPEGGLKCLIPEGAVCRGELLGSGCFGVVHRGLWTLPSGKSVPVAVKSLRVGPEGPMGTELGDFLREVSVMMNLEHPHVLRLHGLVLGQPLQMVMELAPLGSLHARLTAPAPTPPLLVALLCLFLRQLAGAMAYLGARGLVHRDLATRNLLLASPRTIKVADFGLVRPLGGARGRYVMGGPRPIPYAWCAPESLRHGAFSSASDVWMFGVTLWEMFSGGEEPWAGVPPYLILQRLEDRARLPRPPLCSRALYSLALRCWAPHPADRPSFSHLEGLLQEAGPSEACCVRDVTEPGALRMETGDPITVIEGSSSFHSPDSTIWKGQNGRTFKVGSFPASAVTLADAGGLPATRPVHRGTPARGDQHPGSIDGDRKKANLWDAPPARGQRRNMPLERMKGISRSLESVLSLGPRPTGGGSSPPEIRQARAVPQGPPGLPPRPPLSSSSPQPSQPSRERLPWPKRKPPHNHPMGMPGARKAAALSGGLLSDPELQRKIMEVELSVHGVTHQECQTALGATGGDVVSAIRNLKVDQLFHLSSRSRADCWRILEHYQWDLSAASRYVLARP
UniProt Q05655, sequence (whole entry, looked up): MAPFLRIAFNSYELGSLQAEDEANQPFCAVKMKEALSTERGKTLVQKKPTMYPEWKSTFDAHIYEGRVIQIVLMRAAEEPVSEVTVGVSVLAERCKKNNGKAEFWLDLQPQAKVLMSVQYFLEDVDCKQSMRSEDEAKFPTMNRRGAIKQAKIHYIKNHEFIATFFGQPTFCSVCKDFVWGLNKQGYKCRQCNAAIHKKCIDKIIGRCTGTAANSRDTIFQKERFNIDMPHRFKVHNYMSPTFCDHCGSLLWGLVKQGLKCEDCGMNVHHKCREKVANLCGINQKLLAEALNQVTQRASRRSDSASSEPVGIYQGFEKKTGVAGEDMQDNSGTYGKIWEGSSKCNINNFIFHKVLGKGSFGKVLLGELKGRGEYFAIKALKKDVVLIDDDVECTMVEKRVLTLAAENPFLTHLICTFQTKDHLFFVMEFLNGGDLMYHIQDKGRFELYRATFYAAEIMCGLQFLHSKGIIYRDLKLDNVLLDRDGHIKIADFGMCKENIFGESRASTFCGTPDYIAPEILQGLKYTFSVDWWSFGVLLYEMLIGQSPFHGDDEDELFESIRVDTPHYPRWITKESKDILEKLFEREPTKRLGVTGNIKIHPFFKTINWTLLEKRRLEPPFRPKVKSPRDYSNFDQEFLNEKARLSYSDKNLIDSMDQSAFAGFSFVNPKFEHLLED

Set 1
Target: Receptor tyrosine-protein kinase erbB-4 (ERBB4, Homo sapiens, UniProt Q15303)
UniProt Q15303, sequence (whole entry, looked up): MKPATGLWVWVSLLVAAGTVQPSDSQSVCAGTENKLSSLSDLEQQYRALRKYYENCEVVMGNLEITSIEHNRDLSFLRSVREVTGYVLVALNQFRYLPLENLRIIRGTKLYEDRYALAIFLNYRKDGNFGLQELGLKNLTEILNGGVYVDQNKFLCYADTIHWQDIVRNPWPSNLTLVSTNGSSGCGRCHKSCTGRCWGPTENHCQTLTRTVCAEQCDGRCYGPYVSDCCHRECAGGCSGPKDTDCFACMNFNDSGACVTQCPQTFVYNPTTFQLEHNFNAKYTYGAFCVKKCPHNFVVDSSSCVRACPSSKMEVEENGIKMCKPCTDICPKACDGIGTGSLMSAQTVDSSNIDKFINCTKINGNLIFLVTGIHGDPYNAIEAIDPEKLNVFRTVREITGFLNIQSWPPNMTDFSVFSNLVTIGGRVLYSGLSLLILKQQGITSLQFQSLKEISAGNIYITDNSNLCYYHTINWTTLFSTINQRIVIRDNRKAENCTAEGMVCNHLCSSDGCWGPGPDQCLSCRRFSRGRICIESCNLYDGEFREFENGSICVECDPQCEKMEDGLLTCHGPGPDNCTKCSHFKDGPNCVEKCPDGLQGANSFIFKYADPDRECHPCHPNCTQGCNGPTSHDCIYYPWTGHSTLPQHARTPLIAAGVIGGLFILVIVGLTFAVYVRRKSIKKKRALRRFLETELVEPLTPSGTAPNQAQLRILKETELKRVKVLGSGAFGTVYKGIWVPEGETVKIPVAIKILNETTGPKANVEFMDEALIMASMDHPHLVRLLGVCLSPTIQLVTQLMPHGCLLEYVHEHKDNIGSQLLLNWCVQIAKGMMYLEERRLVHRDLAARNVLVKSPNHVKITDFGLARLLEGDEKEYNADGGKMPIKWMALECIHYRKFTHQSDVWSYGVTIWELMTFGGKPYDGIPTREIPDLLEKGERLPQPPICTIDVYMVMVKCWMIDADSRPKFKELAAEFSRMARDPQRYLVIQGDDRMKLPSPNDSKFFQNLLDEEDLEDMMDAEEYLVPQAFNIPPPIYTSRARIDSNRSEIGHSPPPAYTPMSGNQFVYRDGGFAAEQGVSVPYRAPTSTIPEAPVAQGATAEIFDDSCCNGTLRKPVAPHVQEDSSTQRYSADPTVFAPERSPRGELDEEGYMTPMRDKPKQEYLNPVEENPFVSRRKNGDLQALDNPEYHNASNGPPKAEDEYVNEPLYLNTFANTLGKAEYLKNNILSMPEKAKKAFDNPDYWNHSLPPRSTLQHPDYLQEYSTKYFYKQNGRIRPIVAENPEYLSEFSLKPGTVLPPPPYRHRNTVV
Read-out: enzyme activity
Action: inhibitor
Concentration: 0.5 µM
Relative to: control
With N#CC(=C(N)Sc1ccc(N)cc1)c1ccccc1C(F)(F)F the remaining activity was 89.9%.
The remaining activity of Fc1ccc(-c2nc3n(c2-c2ccncc2)CCS3)cc1 is reported as 83%.
For COc1cc(Nc2c(C#N)cnc3cc(OCCCN4CCN(C)CC4)c(OC)cc23)c(Cl)cc1Cl, the remaining activity was 1.53%.
For CCc1[nH]c(-c2ccc(OC)cc2)nc1-c1ccncc1, the remaining activity was 86.8%.
Oc1ccc(Nc2nc(-c3ccc(Cl)cc3)cs2)cc1 gave a remaining activity of 83.3%.
With Nc1nccc(-c2c(-c3ccc(F)cc3)ncn2C2CCNCC2)n1 the remaining activity was 86.8%.
Nc1ncnc2c1cnn2-c1ccccc1 has a remaining activity of 101%.
For NC(=O)c1ccc(N(C(N)=O)c2c(F)cccc2F)nc1-c1ccc(F)cc1F, the remaining activity was 98.1%.
Cc1cc(Nc2nc(-c3ccccc3)nc3ccccc23)n[nH]1 has a remaining activity of 92%.
With Cc1cncc2cccc(S(=O)(=O)N3CCCN(C(=O)CN)C[C@@H]3C)c12 the remaining activity was 78.4%.

Set 2
SMILES: CCC(=N\O)/C(C)=C/c1ccc(F)cc1
Read-out: cell-free assay
Technique: competition with immobilised ligand
Concentration: 1 µM
The remaining binding was 100% (PRKCD (Homo sapiens, UniProt Q05655)).
TNK2 (Homo sapiens, UniProt Q07912) — remaining binding: 85%.
TNK1 (Homo sapiens, UniProt Q13470) — remaining binding: 66%.
The remaining binding was 88% (MAP3K11 (Homo sapiens, UniProt Q16584)).
The remaining binding was 100% (Ribosomal protein S6 kinase alpha-2, C-terminal kinase domain (RPS6KA2, Homo sapiens, UniProt Q15349)).
For NEK11 (Homo sapiens, UniProt Q8NG66): remaining binding read 100%.
For MAP2K7 (Homo sapiens, UniProt O14733): remaining binding read 79%.
It gave 82% for remaining binding (PIK3CA (Homo sapiens, UniProt P42336, H1047Y)).
The remaining binding was 100% (MAP2K2 (Homo sapiens, UniProt P36507)).
It gave 100% for remaining binding (PKN1 (Homo sapiens, UniProt Q16512)).
It gave 100% for remaining binding (Tyrosine-protein kinase ABL1, non-phosphorylated (ABL1, Homo sapiens, UniProt P00519, H396P)).
FGFR4 (Homo sapiens, UniProt P22455) — remaining binding: 96%.
For CLK4 (Homo sapiens, UniProt Q9HAZ1): remaining binding read 100%.
PIK3C2B (Homo sapiens, UniProt O00750) — remaining binding: 92%.
It gave 100% for remaining binding (SBK3 (Homo sapiens, UniProt P0C264)).
The remaining binding was 100% (KIT (Homo sapiens, UniProt P10721)).

Set 3
Target: Beta-1 adrenergic receptor (ADRB1, Homo sapiens, UniProt P08588)
UniProt P08588, sequence (whole entry, looked up): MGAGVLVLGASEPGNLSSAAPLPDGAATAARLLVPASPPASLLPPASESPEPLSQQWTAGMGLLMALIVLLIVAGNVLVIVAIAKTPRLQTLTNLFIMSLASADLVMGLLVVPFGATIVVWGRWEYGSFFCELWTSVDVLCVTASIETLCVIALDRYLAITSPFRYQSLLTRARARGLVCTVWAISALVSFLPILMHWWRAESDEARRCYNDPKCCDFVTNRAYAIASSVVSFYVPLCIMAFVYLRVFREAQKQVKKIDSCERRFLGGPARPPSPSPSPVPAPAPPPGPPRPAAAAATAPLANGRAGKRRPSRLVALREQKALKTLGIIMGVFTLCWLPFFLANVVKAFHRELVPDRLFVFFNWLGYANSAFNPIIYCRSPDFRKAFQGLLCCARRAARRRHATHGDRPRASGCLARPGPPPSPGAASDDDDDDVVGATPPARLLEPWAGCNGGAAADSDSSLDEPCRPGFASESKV
Action: antagonist
Cn1cc(-c2cnc(NC(=O)c3cccnc3)c3c2CCO3)cn1 has an IC50 of ≥ 100 µM.
COCc1cc(NCC(O)COc2ccc(Cl)c(C)c2)ncn1 (centres unmarked) has an IC50 of ≥ 100 µM.
With Cc1cc(C)n(-c2cc(OCC3CCN(c4nc5c(cc4C#N)CCC5)CC3)ncn2)n1 the IC50 was ≥ 100 µM.
For Nc1nc(N)c2nc(-c3cccc(O)c3)c(-c3cccc(O)c3)nc2n1, the IC50 was ≥ 100 µM.
For CNC(=O)c1cc2cc(-c3c(C)noc3C)nc(-c3ccccc3C)c2o1, the IC50 was ≥ 100 µM.
N#Cc1ccc(C(=O)Nc2ccc([C@@H](O)[C@H]3COCC(=O)N3Cc3ccc(F)cc3)cc2)cc1 has an IC50 of ≥ 100 µM.
O=c1ccc2cc(O)c(O)cc2o1 has an IC50 of ≥ 100 µM.
For O=C(O)Cn1cc(-c2cccc(-c3nn4c(=O)cc(N5CCNCC5)nc4s3)c2)cn1, the IC50 was ≥ 100 µM.
With O=c1c2nc(-c3ccccc3)ccc2ncn1-c1ccc(F)cc1F the IC50 was ≥ 100 µM.
C=C(F)c1sc(CNCCCNc2cc(=O)c3ccccc3[nH]2)c(C)c1Br has an IC50 of ≥ 100 µM.
For COC(=O)[C@H](Cc1cccc(C(=N)N)c1)[C@@H](C)NC(=O)c1ccc(-c2cc[n+]([O-])cc2)cc1, the IC50 was ≥ 100 µM.
With N[C@H](Cc1cscn1)C(=O)Nc1cccc(-c2nn3c(=O)cc(N4CCNCC4)nc3s2)c1 the IC50 was ≥ 100 µM.

Set 4
Cell line: HH
Concentration: 2 µM
Time: 48 h
Relative to: untreated
O=C(NCCO)c1cccc(-c2cc(Nc3ccc(OC(F)(F)F)cc3)ncn2)c1 has a viability of 82%.
Nc1cc(C(F)(F)F)c(-c2cc(N3CCOCC3)nc(N3CCOCC3)n2)cn1 gave a viability of 19.2%.
COc1cc(OC)c(/C=C/S(=O)(=O)Cc2ccc(OC)c(NCC(=O)O)c2)c(OC)c1 gave a viability of 38.3%.
Clc1ccc(C2(c3ccc(-c4cn[nH]c4)cc3)CCNCC2)cc1 has a viability of 29.3%.
With O=C1N=C(NCc2cccs2)S/C1=C\c1ccc2ncccc2c1 the viability was 95.2%.
The viability of O=C(c1cccc(Cl)c1F)N1CCN(Cc2cccc(Nc3nccs3)n2)CC1 is reported as 44.4%.
For O=C(Cc1ccc(-c2ccc(OCCN3CCOCC3)cc2)cn1)NCc1ccccc1, the viability was 26.7%.
CCOc1cc(N2CCC(O)CC2)ccc1Nc1ncc2c(n1)N(C)c1ccccc1C(=O)N2C has a viability of 70.2%.
For CCc1cc(Nc2nccc(-c3c(-c4ccc(OC)c(C(=O)Nc5c(F)cccc5F)c4)nc4ccccn34)n2)c(OC)cc1N1CCC(N2CCN(S(C)(=O)=O)CC2)CC1, the viability was 95.5%.
For Cc1ccc(-n2nc(C(C)(C)C)cc2NC(=O)Nc2ccc(OCCN3CCOCC3)c3ccccc23)cc1, the viability was 73.1%.
C=CC(=O)Nc1cccc(Nc2nc(Nc3ccc(NC4CN(CCF)C4)cc3OC)ncc2C(F)(F)F)c1 gave a viability of 67.5%.
With Cc1cc(CS(=O)(=O)c2ccccc2)cc(OCc2ccc(CN3CCC[C@@H]3CO)cc2)c1 the viability was 95.2%.
For Cc1[nH]nc2ccc(-c3cncc(OC[C@@H](N)Cc4ccccc4)c3)cc12, the viability was 15.7%.
With C[C@H](Nc1ncnc2nc[nH]c12)c1cc2cccc(Cl)c2c(=O)n1-c1ccccc1 the viability was 67%.
C=CC(=O)Nc1ccc2ncnc(Nc3cccc(Br)c3)c2c1 gave a viability of 82.3%.

For quick reference, copied from above (set 4):
With O=C1N=C(NCc2cccs2)S/C1=C\c1ccc2ncccc2c1 the viability was 95.2%.
With Cc1cc(CS(=O)(=O)c2ccccc2)cc(OCc2ccc(CN3CCC[C@@H]3CO)cc2)c1 the viability was 95.2%.
Clc1ccc(C2(c3ccc(-c4cn[nH]c4)cc3)CCNCC2)cc1 has a viability of 29.3%.
Nc1cc(C(F)(F)F)c(-c2cc(N3CCOCC3)nc(N3CCOCC3)n2)cn1 gave a viability of 19.2%.
For O=C(Cc1ccc(-c2ccc(OCCN3CCOCC3)cc2)cn1)NCc1ccccc1, the viability was 26.7%.
